Results from different studies.
A part holds a random share of what one study measured. Several values in a cell are separate wells, animals, samples, runs or records.
Chain of UniProt Q9Y2H1 (whole entry, looked up): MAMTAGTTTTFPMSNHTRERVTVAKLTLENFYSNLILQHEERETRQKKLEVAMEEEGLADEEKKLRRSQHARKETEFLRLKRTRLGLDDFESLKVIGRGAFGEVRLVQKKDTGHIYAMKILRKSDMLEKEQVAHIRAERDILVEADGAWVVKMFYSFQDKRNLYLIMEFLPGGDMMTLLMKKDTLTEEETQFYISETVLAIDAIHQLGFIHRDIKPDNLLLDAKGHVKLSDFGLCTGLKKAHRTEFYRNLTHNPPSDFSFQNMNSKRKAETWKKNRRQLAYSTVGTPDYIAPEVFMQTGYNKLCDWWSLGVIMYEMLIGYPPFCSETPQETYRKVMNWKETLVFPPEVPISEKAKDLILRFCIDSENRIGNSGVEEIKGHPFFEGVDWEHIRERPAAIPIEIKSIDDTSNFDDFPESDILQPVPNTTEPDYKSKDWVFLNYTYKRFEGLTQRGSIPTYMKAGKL
Chain of UniProt O75582 (whole entry, looked up): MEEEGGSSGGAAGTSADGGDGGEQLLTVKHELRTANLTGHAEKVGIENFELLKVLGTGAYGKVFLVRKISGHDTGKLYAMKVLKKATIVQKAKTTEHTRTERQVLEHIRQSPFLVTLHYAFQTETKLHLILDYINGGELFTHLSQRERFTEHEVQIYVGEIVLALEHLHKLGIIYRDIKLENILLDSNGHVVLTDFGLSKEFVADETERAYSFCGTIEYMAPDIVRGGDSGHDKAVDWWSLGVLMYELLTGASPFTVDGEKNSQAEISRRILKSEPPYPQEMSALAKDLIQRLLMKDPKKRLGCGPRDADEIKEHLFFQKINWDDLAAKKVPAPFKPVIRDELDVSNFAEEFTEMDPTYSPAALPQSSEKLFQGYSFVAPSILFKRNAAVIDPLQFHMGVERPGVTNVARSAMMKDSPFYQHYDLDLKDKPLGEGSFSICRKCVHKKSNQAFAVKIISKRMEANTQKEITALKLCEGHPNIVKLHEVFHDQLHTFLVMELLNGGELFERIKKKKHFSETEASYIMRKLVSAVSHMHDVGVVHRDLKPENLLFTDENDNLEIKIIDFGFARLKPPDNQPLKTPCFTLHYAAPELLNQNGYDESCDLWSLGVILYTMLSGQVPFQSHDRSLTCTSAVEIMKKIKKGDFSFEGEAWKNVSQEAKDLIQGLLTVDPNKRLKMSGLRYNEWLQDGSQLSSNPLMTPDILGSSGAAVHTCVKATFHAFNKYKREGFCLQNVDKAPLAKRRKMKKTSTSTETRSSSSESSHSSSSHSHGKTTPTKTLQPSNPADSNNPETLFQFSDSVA
Chain of UniProt O95835 (whole entry, looked up): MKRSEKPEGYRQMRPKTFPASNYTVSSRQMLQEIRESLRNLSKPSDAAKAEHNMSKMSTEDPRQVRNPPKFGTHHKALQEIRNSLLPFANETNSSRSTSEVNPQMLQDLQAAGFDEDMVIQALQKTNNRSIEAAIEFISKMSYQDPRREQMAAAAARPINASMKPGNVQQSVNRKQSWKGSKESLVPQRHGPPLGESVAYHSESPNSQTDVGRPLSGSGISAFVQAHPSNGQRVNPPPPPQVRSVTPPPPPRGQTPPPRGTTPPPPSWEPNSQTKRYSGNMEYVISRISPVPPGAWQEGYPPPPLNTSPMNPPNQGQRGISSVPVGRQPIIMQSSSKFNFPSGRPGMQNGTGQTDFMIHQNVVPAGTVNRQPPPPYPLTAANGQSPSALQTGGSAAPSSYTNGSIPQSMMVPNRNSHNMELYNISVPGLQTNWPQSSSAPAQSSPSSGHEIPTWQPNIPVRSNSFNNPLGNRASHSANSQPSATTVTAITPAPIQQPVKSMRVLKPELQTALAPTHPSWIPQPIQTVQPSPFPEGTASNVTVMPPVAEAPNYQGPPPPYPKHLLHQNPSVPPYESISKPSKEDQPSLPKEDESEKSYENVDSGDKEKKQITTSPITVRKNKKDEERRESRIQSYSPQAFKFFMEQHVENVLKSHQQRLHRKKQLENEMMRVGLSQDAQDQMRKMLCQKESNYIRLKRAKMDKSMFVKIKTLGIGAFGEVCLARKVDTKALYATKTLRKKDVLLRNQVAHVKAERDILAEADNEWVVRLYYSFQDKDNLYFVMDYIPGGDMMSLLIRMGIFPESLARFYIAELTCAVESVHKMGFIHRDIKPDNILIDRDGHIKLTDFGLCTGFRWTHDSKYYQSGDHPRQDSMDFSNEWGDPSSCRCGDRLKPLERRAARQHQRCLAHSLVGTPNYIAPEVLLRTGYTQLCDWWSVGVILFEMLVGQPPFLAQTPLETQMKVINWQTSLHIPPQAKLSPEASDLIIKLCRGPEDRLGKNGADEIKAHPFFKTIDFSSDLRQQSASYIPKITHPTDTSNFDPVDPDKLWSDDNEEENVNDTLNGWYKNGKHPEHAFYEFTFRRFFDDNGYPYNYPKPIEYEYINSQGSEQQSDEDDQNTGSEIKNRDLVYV
Chain of UniProt Q9Y6E0 (whole entry, looked up): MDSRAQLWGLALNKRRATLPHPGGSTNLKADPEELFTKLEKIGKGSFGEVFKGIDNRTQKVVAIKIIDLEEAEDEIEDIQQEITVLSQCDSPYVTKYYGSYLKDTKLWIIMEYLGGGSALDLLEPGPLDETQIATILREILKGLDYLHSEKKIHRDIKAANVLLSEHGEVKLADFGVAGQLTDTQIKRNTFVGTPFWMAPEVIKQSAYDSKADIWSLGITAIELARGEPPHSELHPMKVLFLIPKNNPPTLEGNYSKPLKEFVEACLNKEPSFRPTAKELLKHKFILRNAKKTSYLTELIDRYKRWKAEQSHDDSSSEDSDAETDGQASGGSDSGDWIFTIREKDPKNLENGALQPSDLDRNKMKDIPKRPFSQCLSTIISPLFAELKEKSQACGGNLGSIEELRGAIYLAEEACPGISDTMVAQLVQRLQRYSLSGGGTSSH
Chain of UniProt P50613 (whole entry, looked up): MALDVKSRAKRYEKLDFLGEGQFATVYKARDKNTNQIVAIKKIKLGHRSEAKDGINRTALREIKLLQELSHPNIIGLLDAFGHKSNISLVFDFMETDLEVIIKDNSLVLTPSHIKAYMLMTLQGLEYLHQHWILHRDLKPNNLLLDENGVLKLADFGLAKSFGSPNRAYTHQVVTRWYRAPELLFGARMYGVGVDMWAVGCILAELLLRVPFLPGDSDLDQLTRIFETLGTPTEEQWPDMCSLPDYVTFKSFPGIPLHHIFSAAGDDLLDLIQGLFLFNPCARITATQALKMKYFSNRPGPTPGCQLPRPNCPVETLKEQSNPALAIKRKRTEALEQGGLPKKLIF
Chain of UniProt P07332 (whole entry, looked up): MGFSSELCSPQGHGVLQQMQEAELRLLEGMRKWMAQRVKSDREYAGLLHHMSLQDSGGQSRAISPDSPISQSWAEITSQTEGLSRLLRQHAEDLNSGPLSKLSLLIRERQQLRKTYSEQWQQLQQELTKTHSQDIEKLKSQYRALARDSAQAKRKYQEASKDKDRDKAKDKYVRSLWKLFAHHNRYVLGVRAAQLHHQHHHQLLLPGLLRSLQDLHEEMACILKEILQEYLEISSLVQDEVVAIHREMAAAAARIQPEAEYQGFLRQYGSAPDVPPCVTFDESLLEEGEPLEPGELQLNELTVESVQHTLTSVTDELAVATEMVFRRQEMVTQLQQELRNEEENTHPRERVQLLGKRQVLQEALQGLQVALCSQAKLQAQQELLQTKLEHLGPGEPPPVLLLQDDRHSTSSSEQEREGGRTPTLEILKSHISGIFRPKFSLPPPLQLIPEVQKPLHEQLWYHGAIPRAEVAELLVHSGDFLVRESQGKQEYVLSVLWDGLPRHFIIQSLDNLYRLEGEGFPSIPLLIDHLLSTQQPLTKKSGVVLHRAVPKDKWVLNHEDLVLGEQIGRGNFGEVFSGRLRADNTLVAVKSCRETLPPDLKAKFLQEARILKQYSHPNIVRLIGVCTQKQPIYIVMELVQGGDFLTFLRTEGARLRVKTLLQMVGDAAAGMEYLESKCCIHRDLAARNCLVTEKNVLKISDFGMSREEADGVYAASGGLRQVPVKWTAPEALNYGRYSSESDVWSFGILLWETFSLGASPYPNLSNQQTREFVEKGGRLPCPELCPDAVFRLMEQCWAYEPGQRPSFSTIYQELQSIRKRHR

Sample 1
Organism: Sarcocystis neurona
Read-out: parasite growth
Tested at: 10 µM
Time: 96 h
Setting: first screen
Baseline: untreated
| Structure (SMILES) | log2 fold change |
| --- | --- |
| C#C[C@]1(O)CC[C@H]2[C@@H]3CCC4=Cc5oncc5C[C@]4(C)[C@H]3CC[C@@]21C | -0.15 |
| CC[C@H](C)C(=O)O[C@H]1CCC=C2C=C[C@H](C)[C@H](CC[C@@H]3C[C@@H](O)CC(=O)O3)[C@H]21 | -0.33 |
| NS(=O)(=O)c1cc2c(cc1C(F)(F)F)NCNS2(=O)=O | 0.18 |
| CC1Cc2ccccc2N1NC(=O)c1ccc(Cl)c(S(N)(=O)=O)c1 (centres unmarked) | 0.25 |
| CC[C@]1(O)C[C@@H]2CN(CCc3c([nH]c4ccccc34)[C@@](C(=O)OC)(c3cc4c(cc3OC)N(C)[C@H]3[C@@](O)(C(N)=O)[C@H](O)[C@]5(CC)C=CCN6CC[C@]43[C@@H]65)C2)C1 | -0.36 |
| CC#C[C@]1(O)CC[C@H]2[C@@H]3CCC4=CC(=O)CCC4=C3[C@@H](c3ccc(N(C)C)cc3)C[C@@]21C | -0.12 |
| O=C(CCCN1CCC(O)(c2ccc(Cl)cc2)CC1)c1ccc(F)cc1 | 0.17 |
| CN1[C@@H]2CC[C@H]1C[C@@H](OC(=O)c1c[nH]c3ccccc13)C2 | -0.26 |
| NCC(=O)CCC(=O)O | 0.23 |
| COc1cc([C@@H]2c3cc4c(cc3[C@@H](O[C@@H]3O[C@@H]5CO[C@@H](C)O[C@H]5[C@H](O)[C@H]3O)[C@H]3COC(=O)[C@H]23)OCO4)cc(OC)c1O | -0.00906 |

Sample 2
Compound: Cc1cc(-n2nc(Cc3cc(F)cc(C(F)(F)F)c3)nc2C)ccc1C(N)=O
Tested at: 1 µM
| target | test | remaining binding [%] |
| --- | --- | --- |
| CDK7 (Homo sapiens, UniProt P50613) | cell-free assay, competition with immobilised ligand | 100 |
| TEK (Homo sapiens, UniProt Q02763) | cell-free assay, competition with immobilised ligand | 92 |
| PI4KB (Homo sapiens, UniProt Q9UBF8) | cell-free assay, competition with immobilised ligand | 100 |
| MAPK4 (Homo sapiens, UniProt P31152) | cell-free assay, competition with immobilised ligand | 100 |
| STK38L (Homo sapiens, UniProt Q9Y2H1) | binding, competition with immobilised ligand | 49 |
| TYRO3 (Homo sapiens, UniProt Q06418) | cell-free assay, competition with immobilised ligand | 100 |
| DAPK1 (Homo sapiens, UniProt P53355) | cell-free assay, competition with immobilised ligand | 99 |
| STK17B (Homo sapiens, UniProt O94768) | cell-free assay, competition with immobilised ligand | 81 |
| PAK5 (Homo sapiens, UniProt Q9P286) | cell-free assay, competition with immobilised ligand | 100 |
| CSF1R (Homo sapiens, UniProt P07333) | cell-free assay, competition with immobilised ligand | 100 |
| ANKK1 (Homo sapiens, UniProt Q8NFD2) | cell-free assay, competition with immobilised ligand | 100 |
| FES (Homo sapiens, UniProt P07332) | cell-free assay, competition with immobilised ligand | 100 |
| CSNK1G1 (Homo sapiens, UniProt Q9HCP0) | cell-free assay, competition with immobilised ligand | 100 |
| PKMYT1 (Homo sapiens, UniProt Q99640) | cell-free assay, competition with immobilised ligand | 88 |
| Tyrosine-protein kinase JAK1, JH2 (JAK1, Homo sapiens, UniProt P23458) | cell-free assay, competition with immobilised ligand | 100 |
| Tyrosine-protein kinase ABL1, phosphorylated (ABL1, Homo sapiens, UniProt P00519, F317I) | binding | 85 |
| PIK3CA (Homo sapiens, UniProt P42336, E545A) | cell-free assay, competition with immobilised ligand | 100 |
| BMPR1A (Homo sapiens, UniProt P36894) | binding, competition with immobilised ligand | 85 |
| LATS1 (Homo sapiens, UniProt O95835) | cell-free assay, competition with immobilised ligand | 100 |
| EGFR (Homo sapiens, UniProt P00533, G719C) | cell-free assay, competition with immobilised ligand | 100 |
| CDK11B (Homo sapiens, UniProt P21127) | cell-free assay, competition with immobilised ligand | 100 |
| Ribosomal protein S6 kinase alpha-5, C-terminal kinase domain (RPS6KA5, Homo sapiens, UniProt O75582) | cell-free assay, competition with immobilised ligand | 97 |
| MAP4K3 (Homo sapiens, UniProt Q8IVH8) | cell-free assay, competition with immobilised ligand | 69 |
| LIM domain kinase 1 (LIMK1, Homo sapiens, UniProt P53667) | cell-free assay, competition with immobilised ligand | 100 |
| STK24 (Homo sapiens, UniProt Q9Y6E0) | cell-free assay, competition with immobilised ligand | 100 |

Sample 3
Target: Calcium/calmodulin-dependent protein kinase type II subunit alpha (CAMK2A, Homo sapiens, UniProt Q9UQM7)
Chain of UniProt Q9UQM7 (whole entry, looked up): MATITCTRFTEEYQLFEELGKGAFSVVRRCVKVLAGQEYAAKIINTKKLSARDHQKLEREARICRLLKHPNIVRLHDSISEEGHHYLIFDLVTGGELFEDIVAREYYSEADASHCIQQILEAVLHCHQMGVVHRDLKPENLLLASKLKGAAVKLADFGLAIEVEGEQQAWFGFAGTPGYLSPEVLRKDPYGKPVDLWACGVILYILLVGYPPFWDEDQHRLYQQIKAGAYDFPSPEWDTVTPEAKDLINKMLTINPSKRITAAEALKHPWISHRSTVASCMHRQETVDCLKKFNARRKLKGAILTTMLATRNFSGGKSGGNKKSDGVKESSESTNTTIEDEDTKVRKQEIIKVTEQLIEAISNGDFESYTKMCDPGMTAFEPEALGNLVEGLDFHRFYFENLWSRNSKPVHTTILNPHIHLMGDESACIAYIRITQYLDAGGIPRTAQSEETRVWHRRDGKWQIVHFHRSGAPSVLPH
Read-out: enzyme activity
Action: inhibitor
Tested at: 10 µM
| Structure (SMILES) | inhibition |
| --- | --- |
| C=CC(=O)N1CCC(c2ccc(C(N)=O)c(-c3ccc(Oc4ccccc4)cc3)n2)CC1 | 4% |
| OCCCO | -3% |
| O=C(O)c1ccc2nc(-c3cc(Cl)cc(Cl)c3)oc2c1 | 0% and -0.03% |
| C[C@@H]1O[C@@H](O[C@H]2[C@H](OC(=O)[C@]34CCC(C)(C)C[C@H]3C3=CC[C@@H]5[C@@]6(C)C[C@H](O)[C@H](O[C@@H]7O[C@H](CO)[C@@H](O)[C@H](O)[C@H]7O)[C@@](C)(CO)[C@@H]6CC[C@@]5(C)[C@]3(C)CC4)O[C@H](CO)[C@@H](O)[C@@H]2O)[C@H](O)[C@H](O)[C@H]1O[C@@H]1OC[C@@H](O)[C@H](O)[C@H]1O | -20% |
| CC(C)=CCC[C@@](C)(O)[C@H]1CC[C@]2(C)[C@@H]1[C@H](O)C[C@@H]1[C@@]3(C)CC[C@H](O)C(C)(C)[C@@H]3CC[C@]12C | -9% |
| CC(=O)Cc1cc(=O)c2c(C)cc(O)c([C@@H]3O[C@H](CO)[C@@H](O)[C@H](O)[C@H]3O)c2o1 | 7% |
| CCCCCCc1cccs1 | 0% |
| CC(C)N(CCCCOCC(=O)NS(C)(=O)=O)c1cnc(-c2ccccc2)c(-c2ccccc2)n1 | -13% |

Sample 4
Target: Eukaryotic initiation factor 4A-III (Homo sapiens, UniProt P38919)
Chain of UniProt P38919 (whole entry, looked up): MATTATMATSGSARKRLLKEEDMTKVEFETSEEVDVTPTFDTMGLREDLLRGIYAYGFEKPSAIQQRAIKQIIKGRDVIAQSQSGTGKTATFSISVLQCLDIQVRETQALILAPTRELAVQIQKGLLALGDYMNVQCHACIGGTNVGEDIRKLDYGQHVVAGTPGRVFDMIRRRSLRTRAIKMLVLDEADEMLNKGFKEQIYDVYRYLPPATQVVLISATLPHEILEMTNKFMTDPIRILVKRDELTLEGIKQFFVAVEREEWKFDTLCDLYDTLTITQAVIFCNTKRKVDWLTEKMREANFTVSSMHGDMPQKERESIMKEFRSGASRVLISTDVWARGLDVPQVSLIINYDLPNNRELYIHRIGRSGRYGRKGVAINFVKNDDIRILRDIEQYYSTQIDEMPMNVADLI
Read-out: RNA clamping
Method: fluorescence polarization
Tested at: concentration not given
With: FAM-labelled poly r(AG)8 RNA
| Compound | fluorescence polarization change |
| --- | --- |
| CO/N=C(\c1ccco1)[C@H]1[C@@H](O)[C@@]2(O)c3c(OC)cc(OC)cc3O[C@@]2(c2ccc(OC)cc2)[C@@H]1c1ccccc1 | 7.7 mP |
| C#CCCC1(CCOc2ccc([C@@H]3[C@@H](C(=O)c4ccco4)[C@@H](O)[C@@]4(O)c5c(OC)cc(OC)cc5O[C@@]34c3ccc(OC)cc3)cc2)N=N1 | -0.9 mP |
| COc1ccc([C@@]23Oc4cc(OC)cc(OC)c4[C@]2(O)C(=O)[C@H](C(=O)NCCCC2(C)OCCO2)[C@H]3c2ccccc2)cc1 | 29.8 mP |
| COC(=O)C1=C(c2ccccc2)[C@]2(c3ccc(OC)cc3)Oc3cc(OC)cc(OC)c3[C@]2(O)C1=O | 9.7 mP |
| COC(=O)[C@@H]1[C@@H](c2ccccc2)[C@]2(c3ccc(OC)cc3)Oc3cc(OC)cc(OC)c3[C@@]23OC(c2ccccc2Cl)=N[C@@]13O | -1.7 mP |
| COc1ccc([C@@]23Oc4cc(OC)cc(OC)c4[C@@](O)(C2=O)[C@H](C(=O)N(C)OC)[C@H]3c2ccccc2)cc1 | -0.3 mP |
| COC(=O)[C@@H]1[C@@H](c2ccccc2)[C@]2(c3ccc(OC)cc3)Oc3cc(OC)cc(OC)c3[C@@]23NC(c2ccc(Br)cc2)=N[C@@]13O | 5.5 mP |
| COc1ccc([C@@]23Oc4cc(OC)cc(OC)c4[C@]2(O)[C@H](O)[C@H](CO)[C@H]3c2ccccc2)cc1 | 32.3 mP |
| COc1ccc([C@@]23Oc4cc(OC)cc(OC)c4[C@]2(O)c2nc(C4CCCCC4)[nH]c(=O)c2[C@H]3c2ccccc2)cc1 | 35 mP |
| COc1cc(OC)c2c(c1)N(C)[C@]1(c3ccc(Br)cc3)C(=O)[C@@]2(O)[C@H](c2ccccc2)[C@H]1c1ccccc1 | -8.6 mP |

Some of these lines once more (sample 3):
| Structure (SMILES) | inhibition |
| --- | --- |
| C=CC(=O)N1CCC(c2ccc(C(N)=O)c(-c3ccc(Oc4ccccc4)cc3)n2)CC1 | 4% |
| OCCCO | -3% |
| O=C(O)c1ccc2nc(-c3cc(Cl)cc(Cl)c3)oc2c1 | 0% and -0.03% |
